Measurements from different studies.
Every numbered part comes from another study and shows a few of its results, in no order. Substitutions count along the parent as printed.

Block 1
Target: Histone acetyltransferase KAT6A, winged helix 1, GST fusion (KAT6A, Homo sapiens, UniProt Q92794, residues 1-85)
Technique: protein binding microarray
Form: double-stranded DNA, one strand shown
Medium: in vitro
Concentration: not given
Notes: 8-mer, flanks averaged, mean of 2 arrays, mostly near background
Relative to: not given
Reading: higher = stronger binding
Construct (chain): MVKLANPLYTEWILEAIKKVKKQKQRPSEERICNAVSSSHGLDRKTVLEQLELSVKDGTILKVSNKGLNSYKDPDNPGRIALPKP
Sequence	E-score
CTGGCCGC	0.1
CTCCACAG	-0.242
GAGGACGA	-0.122
CGAGGTGA	-0.0534
TGTGGGAA	-0.24
AATATTGT	-0.0483
GTGGCCCA	-0.132
AGAGTCCA	-0.196
GCTAAGAA	-0.257
ACCAACGG	0.169
ACTTGGCG	0.0189
GAGAAGAA	-0.206
CGTGGCTC	0.123
GATAATAC	-0.156
ACACTCTC	-0.0869
CAATCCGG	0.141
AAGAATCT	-0.0752
AGTTGTGG	-0.218
AACCTATG	-0.108
TGCGTAAA	0.189
ATCCGTTA	0.0962
CGGATCGC	0.189
AGCCGCCG	0.466

Block 2
Target: CCNF, cyclin fold, Cln2 fusion (human)
Technique: yeast growth competition, sequencing
Medium: yeast
Notes: strong parent motif
Relative to: not given
Reading: higher = stronger binding
Starting sequence: E2F1 docking peptide (human); PPVKRRLDLETDH
Substitution	normalised enrichment score
R5S	0.213
P2Y	5.16
E10P	4.13
P2R	5.29
L7R	0.0541
L9F	7.74
H13A	6.57
R6P	1.2
E10W	7.47
R5C	0.247
T11E	5.73
D8K	7.19
P1T	4.05
D12K	6.52
D8N	8.62
E10I	6.24
R6E	1.64
P1W	7.5
K4R	7.83
V3I	3.95
H13G	6.85
E10T	5.96
P1A	6.23
P1M	7.68
K4N	6.43

Block 3
Target: RNA binding protein fox-1 homolog 2, RRM domain, GST-SBP tag (RBFOX2, Homo sapiens, UniProt O43251-10, residues 100-194)
Technique: RNA Bind-n-Seq
Form: RNA
Medium: in vitro
Concentration: 365 nM
Notes: natural RNA segment, single round, ends assumed
Relative to: no-protein control
Reading: higher = stronger binding
Shared flanks, not repeated: GGGAGUUCUACAGUCCGACGAUC … UGGAAUUCUCGGGUGCCAA
Residues (chain): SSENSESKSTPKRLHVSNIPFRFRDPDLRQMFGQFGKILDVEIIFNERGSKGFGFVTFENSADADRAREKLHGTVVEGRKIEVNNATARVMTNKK
Sequence	RBNS enrichment (R)
UCUUUAAUGUACUGGAAAAAGCCUAUGUGAAUCUGUUGAUAGAAUUUAAAAUUCCAGGCCGGGCGUGGUGGCUCACGACUGUAAUCCCAGAACUUUGGGAGGCCAAGGCA	1.12
UACGUGCUUAUCACAGGUCCUUGGCGUCAGGACACUAGGGAUGAACAUGGAGGUGAUAUGUUACACAGUAAACACCUGCCAACCCCUGUACUCCCCUUUGCUCCAUCAGU	0.554
UUUCAUUUGGUACCCUGUACCCCAGUGCCUCUGCGUCGCCUCCUUCUUGUGUGCCUUCUGAGCUGUUUCUUCAGCCUAGAAACUCCCUGCUCAAAGGCACCUUUGCUUUU	0.337
GUACAGUGCCCCACCUAUUUAAAAAUCACGUACUUGCCCAGAACACUGUGAAACACUUAACAUAAGAACAAACGCAGCGUCUGGAUUCUUUCCAAGGAGAGCAGCUUUCU	0.354
ACCACUCUAUAUUUUAUGAAUUACAUGUGGGUUUUUUAUAUAUAAAAACAUAUGCGCUGACAUUUUAUUACAAGCUGCAUGUCCUGACCUUCUUUGAAUUAAGUGGACUG	1.91
GUUGUUCUUUUGCAGCACUCACGCCUCUGACAGUCUUUUGGGAAAGAGUAACACCCACAUACAGAAUUUGUCACAUCCAGAGUAGCACUGUUCCUUAAUACUGGCAUAAU	0.732
UUUGAAAUGCUUUACAAAGGAAAACUGCAUGCCACAUGAGAAAACUUCAAAGUACACUUGCAAUGCAGUGUAUGCCUGUAGUUGCUGCUGCCACCGGCAGGGGGCCUUUG	5.11
UUUUCCAGUGUGGUUUUUAACAGAUAAUACAUUUCUUCCACAUUCAGAUUAGUAUUCGGACAUGAAUCCAUUCUAUAAAACACAUCGUGUUCAUGAUAGUGUAUAUUUUA	0.342

Block 4
Target: Myc proto-oncogene protein, bHLH-zipper, MAX partner unstated (MYC, Homo sapiens, UniProt P01106, residues 368-449)
UniProt P01106, sequence (368-449, looked up): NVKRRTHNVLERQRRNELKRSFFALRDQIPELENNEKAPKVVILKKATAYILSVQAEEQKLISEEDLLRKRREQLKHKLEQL
Technique: protein-binding microarray
Form: double-stranded DNA, one strand shown
Medium: in vitro
Concentration: not given
Notes: k-mer, scored over probes, only values ≥0.25
Reading: higher = stronger binding
Sequence	E-score
ACGCCTCA	0.256
CCGCCCCG	0.347
TCACACGA	0.254
CCCATGCA	0.368
ACGGGGCG	0.294
GACGTGCC	0.275
CCTCGCGC	0.252
CCGCACAC	0.264
CAACACGA	0.266
CCATGGCA	0.322
AACGTGGA	0.408
AACGTGGC	0.441
ACGAGGGG	0.396
AAACACGA	0.283
CCCGCCAC	0.333
CGTGGTGC	0.43
CCCATGCG	0.444
GTGGACAC	0.28
CGTGTGAG	0.315
CATGCAAG	0.292
TCGTGACA	0.267

For quick reference, copied from above (block 1):
Sequence	E-score
CGAGGTGA	-0.0534
TGTGGGAA	-0.24
AATATTGT	-0.0483
GTGGCCCA	-0.132
AGAGTCCA	-0.196
GCTAAGAA	-0.257
ACCAACGG	0.169
ACTTGGCG	0.0189
GAGAAGAA	-0.206
CGTGGCTC	0.123
